Experimental data from different studies.
Every numbered part comes from another study and shows a few of its results, in no order. Changes are numbered by the printed parent chain.

Study 1
Target: ABI1, truncated, D143A, DHFR fusion (Arabidopsis thaliana)
Method: DHFR PCA, deep sequencing
Sample: yeast
Notes: methotrexate growth selection, single substitutions
Added: (+)-ABA 0 µM
Baseline: wild-type fitted maximum
Direction: higher = stronger binding
Starting sequence: PYL1, truncated, DHFR fusion (Arabidopsis thaliana); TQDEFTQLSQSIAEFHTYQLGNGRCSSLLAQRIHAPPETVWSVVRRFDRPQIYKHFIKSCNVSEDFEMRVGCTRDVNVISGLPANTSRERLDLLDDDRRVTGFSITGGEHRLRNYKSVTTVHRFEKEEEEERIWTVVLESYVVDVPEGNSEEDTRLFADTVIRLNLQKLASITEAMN; partner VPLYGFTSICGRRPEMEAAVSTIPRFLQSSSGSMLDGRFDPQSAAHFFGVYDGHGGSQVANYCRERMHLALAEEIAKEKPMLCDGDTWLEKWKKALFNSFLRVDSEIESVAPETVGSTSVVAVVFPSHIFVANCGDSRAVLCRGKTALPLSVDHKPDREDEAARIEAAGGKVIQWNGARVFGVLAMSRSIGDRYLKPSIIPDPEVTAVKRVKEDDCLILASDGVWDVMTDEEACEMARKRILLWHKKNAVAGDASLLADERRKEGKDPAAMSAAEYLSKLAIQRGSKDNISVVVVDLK
Change	relative binding score [%]
I33Q	4.74
P50K	-3.66
C72V	31.8
D159C	-5.11
Q167N	4
G148Y	-16.3

Study 2
Target: Sal-like protein 4, full length isoform B (SALL4, Homo sapiens, UniProt Q9UJQ4-2, residues 1-616)
Method: universal PBM
Form: double-stranded DNA, one strand shown
Sample: in vitro
Tested at: not given
Notes: 8-mer, flanks averaged, mean of replicates
Direction: higher = stronger binding
Target sequence (chain): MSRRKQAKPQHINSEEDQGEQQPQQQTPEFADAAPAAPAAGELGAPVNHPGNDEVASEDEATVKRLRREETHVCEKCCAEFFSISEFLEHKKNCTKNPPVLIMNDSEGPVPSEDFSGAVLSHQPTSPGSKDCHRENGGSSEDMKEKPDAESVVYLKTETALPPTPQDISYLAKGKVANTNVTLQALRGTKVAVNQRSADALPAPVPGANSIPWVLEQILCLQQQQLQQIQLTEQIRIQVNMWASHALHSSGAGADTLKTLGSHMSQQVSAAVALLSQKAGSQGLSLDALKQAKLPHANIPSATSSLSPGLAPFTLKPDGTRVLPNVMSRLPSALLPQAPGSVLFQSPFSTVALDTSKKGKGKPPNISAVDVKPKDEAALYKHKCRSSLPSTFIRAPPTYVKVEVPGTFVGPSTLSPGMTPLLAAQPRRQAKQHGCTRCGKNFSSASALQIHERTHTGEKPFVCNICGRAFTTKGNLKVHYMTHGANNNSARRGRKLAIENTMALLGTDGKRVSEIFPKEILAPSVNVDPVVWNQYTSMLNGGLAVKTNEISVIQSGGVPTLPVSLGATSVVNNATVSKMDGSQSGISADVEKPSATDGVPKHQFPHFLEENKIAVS
Oligonucleotide	E-score
ATGGGGGA	0.00472
GATATCCC	0.0601
ACGGTTCA	-0.182
CTACACGC	-0.0806
ACGATGCA	-0.00137
AAACTCCG	-0.0465

Study 3
Target: CCNF, cyclin fold, Cln2 fusion (human)
Method: yeast growth competition, sequencing
Sample: yeast
Notes: strong parent motif
Baseline: not given
Direction: higher = stronger binding
Starting sequence: ITGB3BP docking peptide (human); MPVKRSLKLDGLL
Change	normalised enrichment score
K4A	5.09
K8A	3.51
L7A	1.58
L9F	8.13

Single results of other studies
Molecule	target	test	system	conditions	scale	endpoint	value
PhoQ, residues 284 288 289 292 302 303 AAQSYM	PhoP, residues 12 14 15 18 19 AGCRL (Escherichia coli, UniProt P23836)	Sort-seq, item: YFP reporter	E. coli	PhoQ-PhoP variant library, added: 10 µM Mg2+	baseline: high Mg2+ state, higher = stronger signaling	fold induction	4.59
